Experimental data pooled from the literature.
Numbered parts are unrelated; each lists some results of a single study. Several values in a cell are separate wells, animals, samples, runs or records. ± gives the spread as reported.
Chain of UniProt Q9Y4B6 (whole entry, looked up): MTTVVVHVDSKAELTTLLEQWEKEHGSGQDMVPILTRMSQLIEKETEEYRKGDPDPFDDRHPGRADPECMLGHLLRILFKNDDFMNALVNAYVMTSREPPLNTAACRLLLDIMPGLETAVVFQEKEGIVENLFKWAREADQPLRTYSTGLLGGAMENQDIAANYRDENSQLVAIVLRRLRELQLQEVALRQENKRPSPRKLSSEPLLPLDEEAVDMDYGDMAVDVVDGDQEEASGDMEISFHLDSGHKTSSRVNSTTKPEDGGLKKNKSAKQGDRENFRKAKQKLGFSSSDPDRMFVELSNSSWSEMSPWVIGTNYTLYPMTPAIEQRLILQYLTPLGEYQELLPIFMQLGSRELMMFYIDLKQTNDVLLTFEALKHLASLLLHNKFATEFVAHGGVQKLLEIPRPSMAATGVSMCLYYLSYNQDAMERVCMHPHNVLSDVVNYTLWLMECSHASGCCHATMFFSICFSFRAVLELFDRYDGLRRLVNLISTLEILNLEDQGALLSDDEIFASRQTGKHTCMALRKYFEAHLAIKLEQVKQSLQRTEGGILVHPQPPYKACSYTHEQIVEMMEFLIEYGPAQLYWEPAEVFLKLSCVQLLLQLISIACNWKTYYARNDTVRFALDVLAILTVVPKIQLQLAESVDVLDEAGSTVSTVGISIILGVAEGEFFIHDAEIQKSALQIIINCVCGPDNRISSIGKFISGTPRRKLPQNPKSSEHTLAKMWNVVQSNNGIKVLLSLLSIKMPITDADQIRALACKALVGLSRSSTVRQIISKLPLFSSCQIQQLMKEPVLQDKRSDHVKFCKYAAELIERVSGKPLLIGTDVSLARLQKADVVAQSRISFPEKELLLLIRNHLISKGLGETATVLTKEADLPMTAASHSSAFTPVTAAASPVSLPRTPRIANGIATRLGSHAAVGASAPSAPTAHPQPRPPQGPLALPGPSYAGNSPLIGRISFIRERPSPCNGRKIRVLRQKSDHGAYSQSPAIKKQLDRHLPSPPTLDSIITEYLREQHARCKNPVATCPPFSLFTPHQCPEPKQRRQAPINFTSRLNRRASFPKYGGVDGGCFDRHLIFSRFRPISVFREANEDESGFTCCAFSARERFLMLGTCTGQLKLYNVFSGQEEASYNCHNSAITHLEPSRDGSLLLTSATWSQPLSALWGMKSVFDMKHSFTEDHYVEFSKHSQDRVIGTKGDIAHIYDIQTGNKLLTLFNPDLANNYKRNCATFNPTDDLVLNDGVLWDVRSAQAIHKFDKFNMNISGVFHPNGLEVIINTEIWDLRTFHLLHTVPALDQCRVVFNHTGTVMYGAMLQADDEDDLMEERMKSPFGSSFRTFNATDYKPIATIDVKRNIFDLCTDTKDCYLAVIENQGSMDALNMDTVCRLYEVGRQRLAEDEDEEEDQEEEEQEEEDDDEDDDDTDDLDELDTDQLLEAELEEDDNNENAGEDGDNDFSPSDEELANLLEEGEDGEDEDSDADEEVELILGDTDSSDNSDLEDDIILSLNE

Study 1
SMILES: CCN1/C(=C/C=C2\CCCC(/C=C/C3=[N+](CC)c4ccccc4C3(C)C)=C2NCCCCCCCCN2CCC(Nc3nc4ccccc4n3Cc3ccc(F)cc3)CC2)C(C)(C)c2ccccc21
Cell line: U-87 MG
Tested at: concentration not given
Baseline: DMSO
Quantity: log2 fold change
refers to: DDIT4 mRNA: 1.42
refers to: TGIF1 mRNA: 1.43
refers to: PCMTD1 mRNA: 0.98
refers to: PADI3 mRNA: -4.25
refers to: UGCG mRNA: 1.72
refers to: CLSPN mRNA: -1.94
refers to: AQP9 mRNA: -1.53
refers to: CD24 mRNA: -3.57
refers to: TAF1D mRNA: 1.1
refers to: TBRG1 mRNA: 1.77
refers to: BAMBI mRNA: 1.96

Study 2
SMILES: C[C@@H]1CN(c2ccc(-c3cc(C(=O)NCCOCCOCCOCCOCCNC(=O)Cn4cc(-c5[nH]cc(C(=O)N[C@@H](CC(N)=O)c6ccc(F)c(Cl)c6)c5-c5ccc(Cl)cc5F)cn4)ccc3F)cc2NC(=O)c2c[nH]c(=O)cc2C(F)(F)F)C[C@H](C)N1C
Observed: thermal unfolding
Technique: differential scanning fluorimetry
Tested at: 5.5 µM
Reading: higher = more unfolded
Quantity: SYPRO Orange fluorescence
WDR5: WD repeat-containing protein 5 (WDR5, Homo sapiens, UniProt P61964)
DCAF1 (Homo sapiens, UniProt Q9Y4B6); 88.01 °C: 37000 a.u.
WDR5; 67.21 °C: 7000 a.u.
WDR5; 62.41 °C: 9090 a.u.
WDR5; 79.21 °C: 20800 a.u.

Study 3
Target: E3 ubiquitin-protein ligase NEDD4, HECT domain (Homo sapiens, UniProt P46934)
Observed: enzyme activity
Mode: inhibitor
Technique: Ub-TR-FRET
Medium: HECT domain
Tested at: 0.4115 µM
Reading: higher = more chain formation
Quantity: ubiquitin chain formation AUC
Residues (P46934 938-1319, limits assumed): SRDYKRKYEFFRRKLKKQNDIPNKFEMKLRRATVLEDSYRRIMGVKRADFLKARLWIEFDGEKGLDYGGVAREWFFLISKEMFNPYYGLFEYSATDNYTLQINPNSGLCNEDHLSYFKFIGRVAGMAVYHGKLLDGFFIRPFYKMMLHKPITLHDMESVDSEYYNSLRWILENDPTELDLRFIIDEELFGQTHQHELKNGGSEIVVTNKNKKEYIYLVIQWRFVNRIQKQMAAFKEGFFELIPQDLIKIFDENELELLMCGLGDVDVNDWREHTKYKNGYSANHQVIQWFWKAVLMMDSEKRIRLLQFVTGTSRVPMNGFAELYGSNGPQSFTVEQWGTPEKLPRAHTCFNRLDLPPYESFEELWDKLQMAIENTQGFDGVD
Cl.NC(=O)/C=C/CNCCCN1c2ccccc2CCc2ccc(Cl)cc21: 136000 a.u. and 137000 a.u.
CCOC(=O)/C=C/CNCCCN1c2ccccc2CCc2ccc(Cl)cc21: 40600 a.u. and 39100 a.u. and 45500 a.u.
CONC(=O)/C=C/CNCCCCN1c2ccccc2CCc2ccc(Cl)cc21.O=C(O)/C=C\C(=O)O: 32400 a.u. and 49500 a.u. and 50500 a.u. and 33400 a.u. and 52100 a.u.
CCOC(=O)/C=C/CNCCCCN1c2cc(Cl)ccc2COc2ccccc21.O=C(O)/C=C\C(=O)O: 71100 a.u. and 72700 a.u. and 71700 a.u.
CCOC(=O)/C=C/CNCCCCN1c2cc(Cl)ccc2CCc2cnn(C)c21.O=C(O)/C=C\C(=O)O: 31200 a.u. and 37700 a.u. and 36300 a.u. and 36600 a.u. and 15200 a.u. and 13700 a.u.
CCOC(=O)/C=C/CNCCCCN1c2cc(Cl)ccc2C(=O)N(C)c2ccccc21.O=C(O)/C=C\C(=O)O: 81600 a.u. and 84000 a.u. and 80700 a.u.

Study 4
Compound: Cc1ncsc1-c1ccc(C(CO)NC(=O)C2CC(O)CN2C(=O)C(C(C)C)n2cc(-c3ccc(COc4c(-c5c(C)c(F)cc6[nH]ncc56)c(C5CC5)cc5c(N6CC7CC6CN7)nc(OC6CCOCC6)nc45)cc3)nn2)cc1 (centres unmarked)
Observed: cell growth or viability
Technique: ATP luminescence
Time: 6 days
Quantity: viability
GP2d; 3 µM: 27.4% and 26.2% and 21.2% and 22.7%
HT-29; 3 µM: 77.1% and 68.9% and 79.3% and 71.8%
BXPC-3; 30 nM: 97% and 106% and 115% and 117%
PK-59; 3 µM: 2.04% and 2.77% and 1.61% and 1.5%
BXPC-3; 10 nM: 87.6% and 100% and 95% and 112%

Study 5
Structure (SMILES): O=C(O)C1(O)Oc2cc(Br)ccc2N(Cc2ccccc2)C1=O (centres unmarked)
Quantity: inhibition
Setaria viridis; fresh weight; 150 g ai/ha, pre-emergence treatment: 68.5% and 67.3% and 62.5%
Arabidopsis thaliana; root length; Col-0, seedlings; 12.5 µg/mL; baseline: water control: 28.1%
Arabidopsis thaliana; root length; Col-0; 25.0 µg/mL, 7 days, seed germination, dark: 41.7%
Arabidopsis thaliana; hypocotyl length; Col-0; 3.125 µg/mL, 7 days, seed germination, dark: 0.8%
Arabidopsis thaliana; root length; Col-0; 100 µg/mL, 7 days, seed germination, dark: 89.7%
Abutilon theophrasti; fresh weight; 150 g ai/ha, pre-emergence treatment: 22.5% and 19.8% and 20.1%
Echinochloa crus-galli; fresh weight; 150 g ai/ha, post-emergence treatment: 38.8% and 45.4% and 42.3%
Arabidopsis thaliana; root length; Col-0, seedlings; 6.25 µg/mL: 19.8%
Arabidopsis thaliana; root length; Col-0; 12.5 µg/mL, 7 days, seed germination, dark: 28.1%
Arabidopsis thaliana; hypocotyl length; Col-0, seedlings; 3.125 µg/mL: -0.765%
Arabidopsis thaliana; root length; Col-0, seedlings; 100 µg/mL; baseline: water control: 89.7%
Zea mays; fresh weight; soil surface spray, 150 g ai/ha, 21 days, pre-emergence crop safety: 21.5% and 20.9% and 22.1%

Study 6
Cell line: Gaucher fibroblasts L444P/L444P
Technique: 4-MUG hydrolysis, cell lysate
Tested at: 10 µM
Time: 72 h
Baseline: vehicle
Quantity: GCase activity
Ic1ccc(Nc2nc(NCCc3c[nH]c4ccccc34)nc(N3CCOCC3)n2)cc1: 35%
Ic1ccc(Nc2nc(NCCN3CCOCC3)nc(N3CCNCC3)n2)cc1: 6%
Ic1ccc(Nc2nc(NCCN3CCOCC3)nc(N3CCSCC3)n2)cc1: 95%
CCOc1ccc2nc(Sc3nc(Nc4ccc(I)cc4)nc(N4CCOCC4)n3)sc2c1: 226%

Mixed results
SLC6A19: Sodium-dependent neutral amino acid transporter B(0)AT1 (SLC6A19, Homo sapiens, UniProt Q695T7)
Chain of UniProt Q695T7 (whole entry, looked up): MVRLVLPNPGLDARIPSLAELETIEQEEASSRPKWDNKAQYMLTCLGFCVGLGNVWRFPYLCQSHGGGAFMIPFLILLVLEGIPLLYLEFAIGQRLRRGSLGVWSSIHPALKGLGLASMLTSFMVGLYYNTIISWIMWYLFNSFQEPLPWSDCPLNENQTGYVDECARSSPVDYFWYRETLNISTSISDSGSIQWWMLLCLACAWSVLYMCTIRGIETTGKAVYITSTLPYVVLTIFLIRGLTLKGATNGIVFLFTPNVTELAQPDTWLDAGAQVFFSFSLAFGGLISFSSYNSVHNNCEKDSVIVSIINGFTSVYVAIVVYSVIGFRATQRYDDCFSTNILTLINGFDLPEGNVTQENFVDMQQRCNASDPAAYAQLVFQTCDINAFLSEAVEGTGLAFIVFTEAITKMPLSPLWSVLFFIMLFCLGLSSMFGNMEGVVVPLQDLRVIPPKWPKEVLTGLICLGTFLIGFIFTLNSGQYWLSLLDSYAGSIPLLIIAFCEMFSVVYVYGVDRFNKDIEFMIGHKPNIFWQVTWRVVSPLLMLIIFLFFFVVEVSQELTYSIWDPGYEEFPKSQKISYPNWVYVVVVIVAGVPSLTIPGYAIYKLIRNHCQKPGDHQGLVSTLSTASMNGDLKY
Cc1cc(OCC(=O)CC(C)C)cc(C)c1Cl  normalised transport activity (SLC6A19; membrane potential, FLIPR membrane potential; CHO-BC cells; concentration not given, first screen; baseline: uninhibited control): 1.27 and 0.854 and 0.971 and 1.13
N#C/C(=C\C1CC1)C(=O)N1CCC[C@H]1Cn1nc(-c2ccc(Oc3ccccc3)cc2F)c2c(N)ncnc21  dissociation half-life (10-fold dilution, LC-MS, with: β-mercaptoethanol): 1.12 ± 0.05 min
CON(C)C(=O)COc1cc(C)c(Cl)c(C)c1  normalised transport activity (SLC6A19; inhibitor, FLIPR membrane potential; CHO-BC cells; 30 µM): 1.05
Cc1nc(C)c(C=[N+]([O-])C(C)(C)C)nc1C  MEF2D protein level (Western blot; MPTP mouse model, substantia nigra nuclei; 90 mg/kg, unit not given; baseline: β-actin): 129 and 146 and 138
CC(C)C[C@@H]1NC(=O)[C@@H](N(C)C(=O)[C@@H](NC(=O)[C@@H]2C[C@@H](F)CN2C(=O)C2(C(F)(F)F)CC(F)(F)C2)C2CC2)CCCCCCCN(C)C(=O)[C@H](Cc2cc(Cl)cnc2OC2CC2)N(C)C1=O  phospho-KNL1 positive cells (immunohistochemistry; mice, sample A PDX, tumour; oral, 100 mg/kg three times daily for 4 d, 8 h after last dose): 3.4% and 3%

Repeated from above (mixed results):
Cc1cc(OCC(=O)CC(C)C)cc(C)c1Cl  normalised transport activity (SLC6A19; membrane potential, FLIPR membrane potential; CHO-BC cells; concentration not given, first screen; baseline: uninhibited control): 1.27 and 0.854 and 0.971 and 1.13
N#C/C(=C\C1CC1)C(=O)N1CCC[C@H]1Cn1nc(-c2ccc(Oc3ccccc3)cc2F)c2c(N)ncnc21  dissociation half-life (10-fold dilution, LC-MS, with: β-mercaptoethanol): 1.12 ± 0.05 min
CON(C)C(=O)COc1cc(C)c(Cl)c(C)c1  normalised transport activity (SLC6A19; inhibitor, FLIPR membrane potential; CHO-BC cells; 30 µM): 1.05
Cc1nc(C)c(C=[N+]([O-])C(C)(C)C)nc1C  MEF2D protein level (Western blot; MPTP mouse model, substantia nigra nuclei; 90 mg/kg, unit not given; baseline: β-actin): 129 and 146 and 138
CC(C)C[C@@H]1NC(=O)[C@@H](N(C)C(=O)[C@@H](NC(=O)[C@@H]2C[C@@H](F)CN2C(=O)C2(C(F)(F)F)CC(F)(F)C2)C2CC2)CCCCCCCN(C)C(=O)[C@H](Cc2cc(Cl)cnc2OC2CC2)N(C)C1=O  phospho-KNL1 positive cells (immunohistochemistry; mice, sample A PDX, tumour; oral, 100 mg/kg three times daily for 4 d, 8 h after last dose): 3.4% and 3%
